Assay results of several laboratories.
Every numbered part comes from another study and shows a few of its results, in no order.

Set 1
Target: Histone acetyltransferase KAT6A, winged helix 2, GST fusion (KAT6A, Homo sapiens, UniProt Q92794, residues 85-181)
Technique: protein binding microarray
Form: double-stranded DNA, one strand shown
Medium: in vitro
Tested at: not given
Setting: 8-mer, flanks averaged, mean of 2 arrays, mostly near background
Relative to: not given
Reading: higher = stronger binding
Residues (chain): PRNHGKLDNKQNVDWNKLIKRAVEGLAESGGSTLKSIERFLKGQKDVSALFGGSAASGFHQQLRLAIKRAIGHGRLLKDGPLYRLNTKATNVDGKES
`ATCCAACG` gave an E-score of -0.0351.
With `AGCTTGCG` the E-score was 0.125.
`CAATGGAG` gave an E-score of -0.0563.
With `GACATCAA` the E-score was 0.101.
For `GCGAGCCA`, the E-score was 0.136.
With `GGATGCCA` the E-score was -0.00624.
`CGTAGTCC` has an E-score of -0.0869.
`CATTACTA` has an E-score of -0.119.

Set 2
Organism: SARS-CoV-2
Observed: cytopathic effect
Cell line: Vero E6
Tested at: 10 µM
With `N[C@@H](Cc1ccc(O)c(O)c1)C(=O)O` the inhibition was -6%.
The inhibition of `O=C(O)c1ccccc1-c1c2cc(Br)c(=O)cc-2oc2[c]([Hg][OH])c(O)c(Br)cc12` is reported as -49.3%.
The inhibition of `O=C1OC2(c3cc(I)c(O)c(I)c3Oc3c2cc(I)c(O)c3I)c2c(Cl)c(Cl)c(Cl)c(Cl)c21` is reported as 75.5%.

Set 3
Target: Replicase polyprotein 1ab, nsp13 helicase (rep, Severe acute respiratory syndrome coronavirus 2, UniProt P0DTD1)
Action: inhibitor
Tested at: 20 µM
`C=CC(=O)Nc1cccc(Oc2nc(Nc3ccc(N4CCN(C)CC4)cc3)nc3ccsc23)c1` gave an inhibition of 56.3%.
With `O=C(O)COCCN1CCN([C@H](c2ccccc2)c2ccc(Cl)cc2)CC1` the inhibition was 6.01%.
For `FC(F)(F)c1ccccc1-c1cc(C(F)(F)F)c2nc(C3=NOC4(CCCCC4)C3)[nH]c2c1`, the inhibition was 2.06%.
`CCCCC1(C2CCCC2)Cc2cc(OCCCC(=O)O)c(Cl)c(Cl)c2C1=O` (stereo not shown) gave an inhibition of 10.6%.
The inhibition of `O=c1[nH]c(=O)n([C@H]2C[C@H](O)[C@@H](CO)O2)cc1Br` is reported as 3.94%.
The inhibition of `Cc1nc2n(c(=O)c1CCN1CCC(c3noc4cc(F)ccc34)CC1)CCCC2O` (stereo not shown) is reported as 12.4%.
For `CCCCC(=O)O[C@]1(C(=O)CO)[C@@H](C)C[C@H]2[C@@H]3CCC4=CC(=O)C=C[C@]4(C)[C@@]3(F)[C@@H](O)C[C@@]21C`, the inhibition was 1.05%.
`COc1cc(C)nc(-n2nc(C)cc2OC)n1` has an inhibition of 0.48%.
`Cc1ccc(OCCSc2ncccn2)c(Br)c1` has an inhibition of 2.61%.
`O=C1NC(=O)c2cc(Nc3ccccc3)c(Nc3ccccc3)cc21` has an inhibition of 1.73%.
For `c1ccc(-c2[nH]ncc2-c2ccnc3ccccc23)nc1`, the inhibition was 0.19%.
The inhibition of `CC(C)(C)C(=O)CN1C(=O)[C@H](NC(=O)Nc2cccc(C(=O)O)c2)CN(C2CCCCC2)c2ccccc21` is reported as 10.2%.
`COc1cc(C(=O)N2CCOCC2)cc(OC)c1OC` has an inhibition of 1.38%.
The inhibition of `C=CC(C)(C)c1cc(/C=C/C(=O)c2ccc(O)cc2)c(OC)cc1O` is reported as 1.41%.
`CC=C1C(=O)C[C@H]2[C@@H]3CCC4=CC(=O)CC[C@]4(C)[C@H]3CC[C@]12C` has an inhibition of 0.18%.
For `COc1ccc([C@]2(C#N)CC[C@@H](C(=O)O)CC2)cc1OC1CCCC1`, the inhibition was 1.75%.
`N=C1NC(=O)/C(=C/c2ccc(O)cc2)S1` has an inhibition of 8.2%.
For `Cc1oc(=O)oc1COC(=O)C1=C([C@H]2CCCO2)S[C@@H]2[C@@H]([C@@H](C)O)C(=O)N12`, the inhibition was 2.43%.
The inhibition of `Cc1ccc2c(c1)c1c3n2CCNC3CCC1` (stereo not shown) is reported as 5.12%.
For `NC(=O)NC(=O)Cc1ccccc1`, the inhibition was -2.69%.
For `Cc1nc(C)c(-c2ccc(C3CCC(CC(=O)O)CC3)cc2)nc1C(N)=O` (stereo not shown), the inhibition was 2.78%.
For `CCC(C)n1ncn(-c2ccc(N3CCN(c4ccc(OC[C@H]5CO[C@](Cn6cncn6)(c6ccc(Cl)cc6Cl)O5)cc4)CC3)cc2)c1=O` (stereo partly shown), the inhibition was 0.56%.
With `CN1C(C)(C)CCCC1(C)C` the inhibition was 5.51%.
`CC[C@@H]1/C=C(\C)C[C@H](C)C[C@H](OC)[C@H]2O[C@@](O)(C(=O)C(=O)N3CCCC[C@H]3C(=O)O[C@H](/C(C)=C/[C@@H]3CC[C@@H](O)[C@H](OC)C3)[C@H](C)[C@@H](O)CC1=O)[C@H](C)C[C@@H]2OC` gave an inhibition of 0.77%.
With `O=c1cc(-c2ccc(O)c(O)c2)oc2cc(O)cc(O)c12` the inhibition was 38.6%.

Set 4
Target: Sal-like protein 4, full length isoform B (SALL4, Homo sapiens, UniProt Q9UJQ4-2, residues 1-616)
Technique: universal PBM
Form: double-stranded DNA, one strand shown
Medium: in vitro
Tested at: not given
Setting: 8-mer, flanks averaged, mean of replicates
Reading: higher = stronger binding
`CGCACCTC` has an E-score of -0.193.
`GCAAATGA` has an E-score of 0.0664.
`CCACTCCG` has an E-score of -0.138.
`TATGCCAA` has an E-score of 0.18.
With `CTGTCTGA` the E-score was -0.0787.
With `TACCGCAA` the E-score was 0.0958.
The E-score of `AGCAGTCC` is reported as -0.281.
`ATTCCTCC` has an E-score of -0.00252.

Set 5
Target: Interferon regulatory factor 5, full length, phosphomimetic (IRF5, Homo sapiens, UniProt Q13568-2, residues 1-514, K96S/S451D/S453D/S456D/S462D)
Technique: protein-binding microarray
Form: double-stranded DNA, one strand shown
Medium: in vitro
Tested at: 250 nM
Setting: 60-bp whole probe
Together with: salmon DNA 0.4 mg/ml
Relative to: random background probes
Reading: higher = stronger binding
Constant ends, left off below: GCCTAGCAC … GTCTTGATTCGCTTGACGCTGCTG
`GACGATTTCGGGAGTGGAGACGTGCTA` has a log fluorescence of 1.77 z-score.
For `TTAGGTATCGAATATCGGTTAGTGCTA`, the log fluorescence was 5.75 z-score.
For `GATGGTTTCGGACTGGGGACGTGCTAG`, the log fluorescence was 4.7 z-score.
`TAGAGTCTCAACCCCCAATAAGTGCTA` gave a log fluorescence of -0.015 z-score.
With `CCCTAGTTGTGTCTTGCCATGTGCTAG` the log fluorescence was -0.219 z-score.
With `GCTATTTTTAGGATGGGCTAGTGCTAG` the log fluorescence was 0.184 z-score.
`GACCGTCTCCTTATCCTGACGTGCTAG` gave a log fluorescence of -0.293 z-score.
`GTTTCATTCCTGATCTCTGGGTGCTAG` gave a log fluorescence of 3.02 z-score.

Set 6
Cell line: HEK-293T
Observed: pseudovirus infection
Organism: VSV pseudotyped with SARS-CoV-2 spike
Tested at: 10 µM
Time: 16 h
Relative to: vehicle-treated
The GFP-positive cells of `Cc1ccc(=O)n(-c2ccccc2)c1` is reported as 84.2%.
`C=CC(N)CCC(=O)O` (stereo not shown) gave a GFP-positive cells of 106%.
For `Nc1ccn(C[C@@H](CO)OCP(=O)(O)O)c(=O)n1`, the GFP-positive cells was 88.2%.

For quick reference, copied from above (set 5):
For `TTAGGTATCGAATATCGGTTAGTGCTA`, the log fluorescence was 5.75 z-score.
For `GATGGTTTCGGACTGGGGACGTGCTAG`, the log fluorescence was 4.7 z-score.
`TAGAGTCTCAACCCCCAATAAGTGCTA` gave a log fluorescence of -0.015 z-score.
With `CCCTAGTTGTGTCTTGCCATGTGCTAG` the log fluorescence was -0.219 z-score.
With `GCTATTTTTAGGATGGGCTAGTGCTAG` the log fluorescence was 0.184 z-score.
`GACCGTCTCCTTATCCTGACGTGCTAG` gave a log fluorescence of -0.293 z-score.
